Assay results pooled from the literature.
A part holds a random share of what one study measured. Positions count from the first letter of the parent shown.

Series 1 — method: DHFR PCA, deep sequencing; sample: yeast; together with: (+)-ABA 58 µM; baseline: wild-type fitted maximum; reading: higher = stronger binding
Target: ABI1, truncated, D143A, DHFR fusion (Arabidopsis thaliana)
Setting: methotrexate growth selection, single substitutions
Parent: PYL1, truncated, DHFR fusion (Arabidopsis thaliana); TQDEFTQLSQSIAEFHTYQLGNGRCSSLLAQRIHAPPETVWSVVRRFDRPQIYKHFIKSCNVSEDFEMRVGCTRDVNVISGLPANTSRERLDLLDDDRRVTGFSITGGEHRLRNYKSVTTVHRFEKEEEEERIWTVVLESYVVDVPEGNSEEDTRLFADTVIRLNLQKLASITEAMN
Under “relative binding score”, `L166D` is recorded as 3.18%.
Under “relative binding score”, `S27M` is recorded as 31.4%.
For `F56M`, “relative binding score” read 74.1%.
`I12Y` — result for “relative binding score”: 37.1%.
`F5W`: “relative binding score” 93%.
`T1K` — result for “relative binding score”: 89.2%.
`V118Y` — result for “relative binding score”: 26.5%.
Under “relative binding score”, `D75M` is recorded as 88.3%.
For `D65W`, “relative binding score” read 62.2%.
For `F47N`, “relative binding score” read 9.36%.
For `E174T`, “relative binding score” read 71%.
For `V43D`, “relative binding score” read -14.6%.

Series 2 — method: RNA Bind-n-Seq; molecule type: RNA; sample: in vitro; concentration: not given; baseline: input RNA pool; reading: higher = stronger binding
Target: RING finger protein unkempt homolog, zinc fingers 1-6, GST-SBP tag (UNK, Homo sapiens, UniProt Q9C0B0, residues 30-357)
Setting: RNA with constant flanks, human-mouse chimeric sites, ends assumed
All sequences stand within: GGGAGUUCUACAGUCCGACGAUC … CAACAGAGGAUUGAGCAUCA
Target sequence (chain): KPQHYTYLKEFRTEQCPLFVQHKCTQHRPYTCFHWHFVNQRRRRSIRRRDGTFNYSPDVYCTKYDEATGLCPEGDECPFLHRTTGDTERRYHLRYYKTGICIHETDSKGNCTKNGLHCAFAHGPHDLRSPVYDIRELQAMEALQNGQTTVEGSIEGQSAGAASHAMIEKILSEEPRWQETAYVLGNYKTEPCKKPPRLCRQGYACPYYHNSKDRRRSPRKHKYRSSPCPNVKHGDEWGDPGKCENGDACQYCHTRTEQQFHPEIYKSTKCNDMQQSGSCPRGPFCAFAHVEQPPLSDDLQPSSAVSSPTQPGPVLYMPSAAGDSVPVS
`CGCUGGCCCAAGCUGAUGGACUCUGAUGGCCUCCAUCUCUCAGGCACGUGUGCCUUCUCUUAGUCCCUGUUUUCGGGUCACAAAGCUUCUCAGUACUGUUUGACAGAAGCACCAGCUUUG` has a bound/input enrichment of 0.0956 ratio.
The bound/input enrichment of `UUUCUACUGCAGCAAACCAUGCUACGAAUUAAGGAUCCUAAGAAGUCACUGGAUUUUUAUACGAGGGUUCUUGGACUGACCCUCCUGCAGAAGCUUGACUUCCCUGCUAUGAAGUUCUCG` is reported as 0.114 ratio.
`GCGAACAGGACUACAGAAAUGCUGGUAAUUUCAGUCACUUGCUGAUGACUUCUGAUGUCCCAGCAAAUGUUGGCAUUGUUGACUGCUGAGAAGAUACUUCUGAGGACCCACGUCUAAGGU` gave a bound/input enrichment of 0.078 ratio.
With `UAAGUCCUGUGCCAGCACUUCGCUCAUAAAGUUUUAAAUUCUGGACCAAUUGUGUUUGUUUCCUGAUUAUUGUAUCCAAUACUUUGCCUAGUAUGUAACUCACUCUUCUGGAUAAAUAAA` the bound/input enrichment was 2.16 ratio.
With `UCUGGUCAUACUCGUGCAUAUGGUGUGUGCUUUGUGGACACUUCACUGGGCAAGUUUUUCAUCGGCCAGUUUUCGGAUGACCGCCACUGUUCCAGAUUUAGGACGCUAGUGGCUCACUAU` the bound/input enrichment was 0.199 ratio.
The bound/input enrichment of `AAAGUGGACUAUGGCGAGUACAUGGAUAAAAAUAAUGUGAGGCGGCAAGCAACAACAAUCAUAGCUGAUAACAUUAUAUUUCUGAGUGACCAGACGAAAGAAAAGGCAUAGAACGGAUGA` is reported as 1.36 ratio.
The bound/input enrichment of `UACUGCUGCUUUCAACUAUCACUGAGGAGGCAUCUCUACUGUUCUGUGAGCAUCAGGACUGUAGCGCUGUGUCACCACAUGAGAGUUCAGAAGCAGCCUUUCUGUGGAGGGUGGGAAUGA` is reported as 0.0913 ratio.
`ACCAUUUCUGAAUACACGGCUUUGUGUGUAGUUCACUUACGGUAUUAAAUUAUUAUUCUGCUUAGCUUAUAAUAAGGAUAAUUGCAUGAUUUAAGUAUACUGAAUGUUACUCUGAAACUU` gave a bound/input enrichment of 0.419 ratio.
`GCGGCAGAAUCAUGGAGGACAUGAUGGAGCUCCCCAAAGCGCGCGUCAACGCCAGCAUGUUACCACAGUAUAUCGACCGGCCCGUGUGCUUCGUAGGGAAGCUGGAAAAGAUUCAUCCCA` gave a bound/input enrichment of 0.26 ratio.
With `GCUCUUGGGAAUGUAAUCAGCGCCUUGGGGGACAAGAGCAAGAGAGCCACCCAUGUCCCCUAUAGAGACUCUAAGCUGACAAGACUCUUGCAGGAUUCCCUUGGGGGUAACAGCCAAACC` the bound/input enrichment was 0.204 ratio.
The bound/input enrichment of `CUGUGUGGCUUACUAAAAUGGCUUGUAAAGAAGUUUUUCCAAGCUGUACCCAUGUACGUUAUUAUAGUUGCUGCAAAAUGUUCUUCCUGAUAUUGAUUUUAUUUGUUAACUGAAGGUCUC` is reported as 0.281 ratio.

Series 3 — method: universal PBM; molecule type: double-stranded DNA, one strand shown; sample: in vitro; concentration: not given; reading: higher = stronger binding
Target: Sal-like protein 4, full length isoform B (SALL4, Homo sapiens, UniProt Q9UJQ4-2, residues 1-616)
Setting: 8-mer, flanks averaged, mean of replicates
`GAGGTAAC` gave an E-score of -0.0462.
The E-score of `AGCTAAAA` is reported as 0.178.
With `GCGGGTAA` the E-score was -0.204.
With `AAGGTGTC` the E-score was -0.109.
With `CTTATAGC` the E-score was 0.19.
With `GACCGTTA` the E-score was 0.0569.
With `AGGTTGTA` the E-score was 0.136.
`AATTCTCA` gave an E-score of 0.181.
With `CCTTTCTA` the E-score was 0.104.
The E-score of `CGCCTTGA` is reported as -0.217.
The E-score of `TGAAATAA` is reported as 0.325.
The E-score of `AGACGCCC` is reported as -0.363.
The E-score of `CTCCTCAG` is reported as -0.2.
`CAAGAATC` gave an E-score of 0.0757.
For `CATTCGTC`, the E-score was 0.0387.
`ATCCCTCC` gave an E-score of -0.00237.
The E-score of `AACGCGAG` is reported as -0.0607.
The E-score of `AACTAAGC` is reported as -0.0307.
For `AGGGAAAA`, the E-score was 0.183.

Series 4 — target: CCND2, cyclin fold, Cln2 fusion (human); method: yeast growth competition, sequencing; sample: yeast; setting: weak parent motif; baseline: not given; reading: higher = stronger binding
Parent: SCAPER docking peptide (human); SNARRSLNFGGST
`SNARRSLCFGGST [N8C]`: “normalised enrichment score” 0.0534.
For `SNAGRSLNFGGST [R4G]`, “normalised enrichment score” read 0.173.
`SNLRRSLNFGGST [A3L]`: “normalised enrichment score” -0.282.
`SNRRRSLNFGGST [A3R]` — result for “normalised enrichment score”: -0.107.
For `SNARRSLNKGGST [F9K]`, “normalised enrichment score” read 0.154.
Under “normalised enrichment score”, `SNARRSLNEGGST [F9E]` is recorded as -0.263.
For `PNARRSLNFGGST [S1P]`, “normalised enrichment score” read 0.0604.
For `SYARRSLNFGGST [N2Y]`, “normalised enrichment score” read 0.046.
For `SNARRSLWFGGST [N8W]`, “normalised enrichment score” read 0.134.
Under “normalised enrichment score”, `SLARRSLNFGGST [N2L]` is recorded as 0.243.
Under “normalised enrichment score”, `SKARRSLNFGGST [N2K]` is recorded as 0.477.
`SNARRSENFGGST [L7E]`: “normalised enrichment score” -0.113.
`INARRSLNFGGST [S1I]`: “normalised enrichment score” 0.181.
`KNARRSLNFGGST [S1K]`: “normalised enrichment score” 0.35.
Under “normalised enrichment score”, `SNARRSLNFGGNT [S12N]` is recorded as 0.878.
For `SNARRSGNFGGST [L7G]`, “normalised enrichment score” read 0.0399.

Other studies, line by line
The fold induction of `PhoQ, residues 284 288 289 292 302 303 GLASVI` is reported as 8.15 (PhoP, residues 12 14 15 18 19 AWHSL (Escherichia coli, UniProt P23836); Sort-seq, item: YFP reporter; E. coli; PhoQ-PhoP variant library, together with: 10 µM Mg2+; baseline: high Mg2+ state, higher = stronger signaling).

For quick reference, copied from above (series 1):
`I12Y` — result for “relative binding score”: 37.1%.
For `E174T`, “relative binding score” read 71%.
`F5W`: “relative binding score” 93%.
For `D65W`, “relative binding score” read 62.2%.
Under “relative binding score”, `L166D` is recorded as 3.18%.
For `F47N`, “relative binding score” read 9.36%.
`V118Y` — result for “relative binding score”: 26.5%.
`T1K` — result for “relative binding score”: 89.2%.
For `F56M`, “relative binding score” read 74.1%.
